{"data": "Experimental data from different studies", "note": "Compare with care: the assays were run in different laboratories. ± marks the error that the study gave."}
{"Structure (SMILES)": "NCC(=O)Nc1cncc(-c2nn3c(=O)cc(N4CCNCC4)nc3s2)c1", "test": "population PK model", "test system": "human", "setting": "subcutaneous, dose not given, geometric mean", "endpoint": "apparent central volume (Vc/F)", "value": "50.7 L"}
{"Structure (SMILES)": "CCCOc1ccc([C@H]2CNC(=O)N2c2ccc3[nH]cnc3c2)cc1", "test system": "human volunteers fed, plasma", "setting": "oral tablet, 200 mg single dose, crossover, geometric mean", "endpoint": "apparent terminal half-life", "value": "3.6 h"}
{"Structure (SMILES)": "Cc1cc(C)c(CNC(=O)c2cc(Cl)c3c(c2C)O[C@@](C)([C@H]2CC[C@H](N(C)C)CC2)O3)c(=O)[nH]1", "test": "population PK model", "test system": "human", "setting": "oral, dose not given", "endpoint": "apparent central volume", "value": "42.5 L"}
{"Structure (SMILES)": "COc1ccc(-n2nc(C(N)=O)c3c2C(=O)N(c2ccc(N4CCCCC4=O)cc2)CC3)cc1", "test system": "human, plasma", "setting": "oral, dose not given, Base population PK model", "endpoint": "apparent peripheral volume", "value": "21.8 ± 1.48 L"}
{"Structure (SMILES)": "CNC(=O)c1ccc(N2C(=S)N(c3ccc(C#N)c(C(F)(F)F)c3)C(=O)C2(C)C)cc1F", "test": "population PK base model", "test system": "human, male", "setting": "oral, dose not given", "endpoint": "apparent peripheral volume", "value": "48.8 L"}
{"Structure (SMILES)": "O=C(O)CCC(=O)O.[2H]C([2H])([2H])Oc1cc(C)c2[nH]ccc2c1CN1CC[C@@H](C2CC2)C[C@H]1c1ccc(C(=O)O)cc1", "test system": "healthy humans, fasted, plasma", "setting": "oral, 200 mg, single dose", "endpoint": "apparent clearance (CL/F)", "value": "1.61 L/h"}
{"Structure (SMILES)": "Cc1cc(C)c(CNC(=O)c2cc(Cl)c3c(c2C)O[C@@](C)([C@H]2CC[C@H](N(C)C)CC2)O3)c(=O)[nH]1", "test system": "healthy male human, plasma", "setting": "oral, 25 mg, alone, before fluconazole", "endpoint": "apparent volume of distribution", "value": "1310 L"}
{"Structure (SMILES)": "Nc1nc2cccc(-c3ccc(CN4CCS(=O)(=O)CC4)cc3)n2n1", "test": "population PK SIR median", "test system": "human", "setting": "dose not given", "endpoint": "apparent central volume", "value": "81.2 L"}
{"Structure (SMILES)": "Cc1nc(Nc2ncc(C(=O)Nc3c(C)cccc3Cl)s2)cc(N2CCN(CCO)CC2)n1", "test system": "human patients, plasma", "setting": "65 mg/m^2, day 8", "endpoint": "apparent oral clearance", "value": "2240 ± 871 mL/min/m²"}
{"Structure (SMILES)": "C[C@H](Cn1cnc2c(N)ncnc21)OCP(=O)(O)O", "test": "population PK model", "test system": "human, plasma", "setting": "oral, final simultaneous model estimate", "endpoint": "apparent clearance", "value": "703 mL/min"}
{"Structure (SMILES)": "NC[C@@]1(CC(=O)O)[C@@H]2CC[C@H]3C[C@@H]2[C@@H]1C3", "test system": "humans with normal renal function, plasma", "setting": "geometric mean", "endpoint": "apparent unbound oral clearance", "value": "12.4 L/h"}
{"Structure (SMILES)": "C=CC(=O)N(C)CCOc1c(N)ncnc1-c1cc(F)cc(NC(=O)c2ccc(C3CC3)cc2F)c1C", "test system": "human, whole blood", "setting": "oral, 100 mg, single ascending dose", "endpoint": "apparent clearance CL/F", "value": "335 L/h"}
{"Structure (SMILES)": "COC(=O)N[C@H](C(=O)N1CCC[C@H]1c1nc(-c2ccc(-c3ccc(-c4c[nH]c([C@@H]5CCCN5C(=O)[C@@H](NC(=O)OC)C(C)C)n4)cc3)cc2)c[nH]1)C(C)C", "test": "population PK base model", "test system": "human", "setting": "oral, dose not given", "endpoint": "apparent volume of distribution", "value": "65.2 L"}
{"Structure (SMILES)": "COc1cc(C(=O)NC2CCN(C)CC2)c(F)cc1Nc1ncc(C(F)(F)F)c(Oc2cccc3c2C(=O)N(C)C3)n1", "test system": "human patients, plasma", "setting": "oral, 300 mg single dose, geometric mean", "endpoint": "apparent oral clearance CL/F", "value": "98.6 mL/min"}
{"Structure (SMILES)": "Cl.[2H]C([2H])([2H])CC(=O)c1cnc(NC(=O)C2CC2)cc1Nc1cccc(-c2ncn(C([2H])([2H])[2H])n2)c1OC", "test system": "human, non-fasted", "setting": "oral, 30 mg twice daily, day 14, multiple dose, tablet, geometric mean", "endpoint": "apparent clearance", "value": "267 mL/min"}
{"Structure (SMILES)": "Cn1cc(-c2cn3nccc3c(-c3cnn([C@]4(CC#N)C[C@@H](C#N)C4)c3)n2)cn1", "test system": "healthy humans fasted, plasma", "setting": "100 mg single dose, geometric mean", "endpoint": "apparent volume Vz/F", "value": "2670 L"}
{"Structure (SMILES)": "C[C@@H](Oc1ccc(S(C)(=O)=O)cc1C(=O)N1C[C@@H]2C[C@]2(c2cc(C(F)(F)F)on2)C1)C(F)(F)F", "test system": "young healthy humans, plasma", "setting": "oral, 10 mg once daily, multiple dosing", "endpoint": "apparent clearance at steady state", "value": "84.1 mL/min"}
